Experimental data collected from several papers.
Parts stem from different laboratories: compare values within a part only. Several values in a cell are separate wells, animals, samples, runs or records.
Chain of UniProt P11802 (whole entry, looked up): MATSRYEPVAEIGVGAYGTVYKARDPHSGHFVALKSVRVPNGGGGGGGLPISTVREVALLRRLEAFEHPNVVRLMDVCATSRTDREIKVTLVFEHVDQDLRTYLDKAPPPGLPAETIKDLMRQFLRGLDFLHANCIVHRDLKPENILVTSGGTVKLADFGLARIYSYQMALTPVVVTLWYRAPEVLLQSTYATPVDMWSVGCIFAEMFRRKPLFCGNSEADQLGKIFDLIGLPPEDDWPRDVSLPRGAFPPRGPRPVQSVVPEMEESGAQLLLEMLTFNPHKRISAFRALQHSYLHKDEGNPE
Chain of UniProt P41146 (whole entry, looked up): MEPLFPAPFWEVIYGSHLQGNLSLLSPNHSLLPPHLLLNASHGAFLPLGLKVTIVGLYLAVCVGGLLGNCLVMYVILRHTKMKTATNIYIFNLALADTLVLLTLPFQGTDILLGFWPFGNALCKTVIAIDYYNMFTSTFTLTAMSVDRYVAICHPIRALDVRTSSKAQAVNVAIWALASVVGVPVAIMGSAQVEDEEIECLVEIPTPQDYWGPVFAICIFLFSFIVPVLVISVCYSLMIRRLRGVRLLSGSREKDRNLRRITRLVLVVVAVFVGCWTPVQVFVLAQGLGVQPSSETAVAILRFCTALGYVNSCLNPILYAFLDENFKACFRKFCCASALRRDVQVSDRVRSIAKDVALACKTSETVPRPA
Chain of UniProt P20309 (whole entry, looked up): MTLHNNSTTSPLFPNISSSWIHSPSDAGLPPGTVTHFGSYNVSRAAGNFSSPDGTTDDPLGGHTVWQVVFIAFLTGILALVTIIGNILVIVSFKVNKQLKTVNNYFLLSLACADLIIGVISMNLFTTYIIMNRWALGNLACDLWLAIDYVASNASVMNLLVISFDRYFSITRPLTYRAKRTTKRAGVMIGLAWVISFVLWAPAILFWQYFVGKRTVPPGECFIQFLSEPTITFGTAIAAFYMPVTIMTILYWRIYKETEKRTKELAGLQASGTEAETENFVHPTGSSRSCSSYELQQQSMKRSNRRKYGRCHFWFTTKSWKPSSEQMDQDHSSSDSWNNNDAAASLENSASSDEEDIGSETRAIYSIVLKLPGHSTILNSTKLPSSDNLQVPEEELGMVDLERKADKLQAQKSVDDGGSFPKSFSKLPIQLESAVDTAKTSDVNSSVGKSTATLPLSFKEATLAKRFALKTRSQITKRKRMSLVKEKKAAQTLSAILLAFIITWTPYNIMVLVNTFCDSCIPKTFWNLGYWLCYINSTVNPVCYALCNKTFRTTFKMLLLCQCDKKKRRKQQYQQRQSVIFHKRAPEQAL
Chain of UniProt Q04759 (whole entry, looked up): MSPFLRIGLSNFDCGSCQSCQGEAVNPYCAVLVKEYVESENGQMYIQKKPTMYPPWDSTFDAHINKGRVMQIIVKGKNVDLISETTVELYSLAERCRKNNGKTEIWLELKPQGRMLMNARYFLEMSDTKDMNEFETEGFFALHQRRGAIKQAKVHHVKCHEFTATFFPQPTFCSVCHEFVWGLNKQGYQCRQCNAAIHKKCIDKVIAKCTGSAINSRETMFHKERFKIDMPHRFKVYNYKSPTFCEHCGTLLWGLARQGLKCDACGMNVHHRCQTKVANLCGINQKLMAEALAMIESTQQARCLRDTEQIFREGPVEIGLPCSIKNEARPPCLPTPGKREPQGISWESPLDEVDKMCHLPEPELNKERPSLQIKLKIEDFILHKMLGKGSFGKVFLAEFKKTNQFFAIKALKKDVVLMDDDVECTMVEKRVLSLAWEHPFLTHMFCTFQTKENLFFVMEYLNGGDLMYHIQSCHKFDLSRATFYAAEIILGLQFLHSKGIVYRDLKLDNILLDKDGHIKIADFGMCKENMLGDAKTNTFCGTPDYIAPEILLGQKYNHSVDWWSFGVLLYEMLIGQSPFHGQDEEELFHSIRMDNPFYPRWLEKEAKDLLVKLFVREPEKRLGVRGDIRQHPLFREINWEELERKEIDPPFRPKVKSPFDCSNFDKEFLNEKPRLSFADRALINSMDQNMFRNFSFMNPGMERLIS
Chain of UniProt P07949 (whole entry, looked up): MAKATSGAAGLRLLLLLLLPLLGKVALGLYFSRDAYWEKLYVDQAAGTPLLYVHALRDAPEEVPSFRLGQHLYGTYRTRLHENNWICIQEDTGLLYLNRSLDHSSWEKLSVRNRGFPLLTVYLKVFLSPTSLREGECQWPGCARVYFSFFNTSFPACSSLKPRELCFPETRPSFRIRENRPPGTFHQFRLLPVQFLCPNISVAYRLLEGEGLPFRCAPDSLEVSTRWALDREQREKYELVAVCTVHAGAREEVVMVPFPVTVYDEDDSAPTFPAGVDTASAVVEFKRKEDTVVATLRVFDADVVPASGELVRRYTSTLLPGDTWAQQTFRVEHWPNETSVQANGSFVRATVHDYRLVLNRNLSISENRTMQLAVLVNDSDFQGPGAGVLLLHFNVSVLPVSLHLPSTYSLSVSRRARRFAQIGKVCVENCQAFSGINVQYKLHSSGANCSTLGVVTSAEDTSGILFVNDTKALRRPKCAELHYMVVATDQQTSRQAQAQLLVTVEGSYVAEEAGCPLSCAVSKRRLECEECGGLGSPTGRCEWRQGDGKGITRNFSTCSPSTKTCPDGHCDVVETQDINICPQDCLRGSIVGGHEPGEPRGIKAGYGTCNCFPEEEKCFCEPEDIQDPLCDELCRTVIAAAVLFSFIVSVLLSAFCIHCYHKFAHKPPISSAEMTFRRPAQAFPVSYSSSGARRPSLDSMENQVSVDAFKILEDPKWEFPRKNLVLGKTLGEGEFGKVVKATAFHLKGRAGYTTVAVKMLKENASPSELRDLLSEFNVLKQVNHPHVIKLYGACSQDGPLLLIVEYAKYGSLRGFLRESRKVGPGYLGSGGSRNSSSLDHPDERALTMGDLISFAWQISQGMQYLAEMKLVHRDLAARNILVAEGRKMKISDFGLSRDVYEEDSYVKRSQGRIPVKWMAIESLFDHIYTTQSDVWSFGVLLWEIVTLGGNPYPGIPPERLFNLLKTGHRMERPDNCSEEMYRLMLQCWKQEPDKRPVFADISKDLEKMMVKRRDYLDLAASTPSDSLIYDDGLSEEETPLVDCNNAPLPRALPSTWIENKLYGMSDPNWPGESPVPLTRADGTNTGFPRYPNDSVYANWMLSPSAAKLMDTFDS
Chain of UniProt Q14012 (whole entry, looked up): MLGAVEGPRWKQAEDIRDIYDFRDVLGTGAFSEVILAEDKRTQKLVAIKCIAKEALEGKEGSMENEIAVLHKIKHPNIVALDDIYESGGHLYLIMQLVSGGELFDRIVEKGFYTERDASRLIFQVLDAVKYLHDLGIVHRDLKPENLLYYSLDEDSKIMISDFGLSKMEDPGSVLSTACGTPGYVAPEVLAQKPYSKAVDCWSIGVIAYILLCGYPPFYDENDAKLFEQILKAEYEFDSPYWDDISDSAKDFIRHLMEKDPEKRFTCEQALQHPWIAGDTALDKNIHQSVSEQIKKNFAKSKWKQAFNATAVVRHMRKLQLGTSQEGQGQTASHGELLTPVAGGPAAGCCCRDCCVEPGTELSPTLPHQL
Chain of UniProt P36897 (whole entry, looked up): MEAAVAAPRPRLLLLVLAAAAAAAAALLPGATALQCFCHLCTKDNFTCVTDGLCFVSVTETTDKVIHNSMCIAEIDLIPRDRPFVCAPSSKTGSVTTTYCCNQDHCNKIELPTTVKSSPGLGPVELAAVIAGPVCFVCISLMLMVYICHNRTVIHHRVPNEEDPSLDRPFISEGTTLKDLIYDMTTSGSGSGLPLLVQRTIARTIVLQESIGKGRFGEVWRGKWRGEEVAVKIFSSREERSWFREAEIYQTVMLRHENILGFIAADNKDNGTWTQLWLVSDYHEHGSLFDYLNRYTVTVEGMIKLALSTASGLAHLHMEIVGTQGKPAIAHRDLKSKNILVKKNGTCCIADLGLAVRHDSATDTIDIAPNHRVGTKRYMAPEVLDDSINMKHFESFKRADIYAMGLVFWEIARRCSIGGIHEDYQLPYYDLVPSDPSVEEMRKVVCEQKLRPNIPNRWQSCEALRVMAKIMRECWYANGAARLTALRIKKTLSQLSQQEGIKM
Chain of UniProt P08913 (whole entry, looked up): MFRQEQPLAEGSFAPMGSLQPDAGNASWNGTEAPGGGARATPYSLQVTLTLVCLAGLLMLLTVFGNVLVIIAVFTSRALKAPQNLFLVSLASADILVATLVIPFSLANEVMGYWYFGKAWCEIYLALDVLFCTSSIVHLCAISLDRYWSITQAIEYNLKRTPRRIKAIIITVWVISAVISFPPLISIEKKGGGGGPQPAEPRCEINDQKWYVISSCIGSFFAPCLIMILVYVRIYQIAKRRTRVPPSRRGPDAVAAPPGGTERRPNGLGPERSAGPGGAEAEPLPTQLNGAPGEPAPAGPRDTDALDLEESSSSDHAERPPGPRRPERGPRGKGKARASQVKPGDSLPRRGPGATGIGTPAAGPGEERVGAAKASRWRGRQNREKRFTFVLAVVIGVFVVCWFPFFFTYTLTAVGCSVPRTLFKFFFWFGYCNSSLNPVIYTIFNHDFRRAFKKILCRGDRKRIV
Chain of UniProt P41145 (whole entry, looked up): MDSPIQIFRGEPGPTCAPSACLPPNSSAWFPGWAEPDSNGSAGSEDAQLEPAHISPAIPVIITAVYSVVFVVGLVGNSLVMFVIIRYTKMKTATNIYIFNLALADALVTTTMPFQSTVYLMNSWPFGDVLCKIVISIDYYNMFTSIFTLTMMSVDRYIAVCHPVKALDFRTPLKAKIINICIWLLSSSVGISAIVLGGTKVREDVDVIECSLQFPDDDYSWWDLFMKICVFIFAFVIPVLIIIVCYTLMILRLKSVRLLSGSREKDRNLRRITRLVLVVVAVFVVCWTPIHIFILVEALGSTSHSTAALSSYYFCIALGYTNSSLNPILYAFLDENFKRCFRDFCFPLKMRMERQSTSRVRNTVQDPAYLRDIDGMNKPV

Sample 1 — host: C57BL/6 CES1-/- mouse, both sexes
SMILES: CC(=O)N[C@@H](Cc1c[nH]c2ccccc12)C(=O)N[C@@H](CCC(=O)C=[N+]=[N-])C(=O)OC(C)C
conditions | body weight
0.1 mg/kg, day 10 | 95.5% and 100% and 96.2% and 105% and 96.6%
1 mg/kg, day 14 | 100% and 90.9% and 97% and 105% and 93.1%
1 mg/kg, day 11 | 93.1% and 100% and 90.9% and 105% and 93.9% and 95.5%

Sample 2
SMILES: CNC(=O)c1ccc(-c2cnn3ccc(C(=O)N(C)c4ccc(Cl)c(C(=O)O)c4)cc23)cc1
target | assay | IC50 [µM]
KIT (Homo sapiens, UniProt P10721) | enzyme activity, inhibitor | > 30
Insulin receptor (INSR, Homo sapiens, UniProt P06213) | enzyme activity, inhibitor | > 30
PRKACA (Homo sapiens, UniProt P17612) | enzyme activity, inhibitor | > 30
WEE1 (Homo sapiens, UniProt P30291) | enzyme activity, inhibitor | > 30
RAF1 (Homo sapiens, UniProt P04049) | enzyme activity, inhibitor | > 30
RET (Homo sapiens, UniProt P07949) | enzyme activity, inhibitor | > 30
PRKCQ (Homo sapiens, UniProt Q04759) | enzyme activity, inhibitor | > 30
EIF2AK4 (Homo sapiens, UniProt Q9P2K8) | enzyme activity, inhibitor | > 30
CAMK2D (Homo sapiens, UniProt Q13557) | enzyme activity, inhibitor | > 30
human phosphodiesterase 3 | enzyme activity | > 30
CAMK1 (Homo sapiens, UniProt Q14012) | enzyme activity, inhibitor | > 30
IGF1R (Homo sapiens, UniProt P08069) | enzyme activity, inhibitor | > 30
CDK4 (Homo sapiens, UniProt P11802) | enzyme activity, inhibitor | > 30
PIM1 (Homo sapiens, UniProt P11309) | enzyme activity, inhibitor | > 30
ADRA2A (Homo sapiens, UniProt P08913) | cell-free assay | > 30
TGFBR1 (Homo sapiens, UniProt P36897) | enzyme activity, inhibitor | > 30

Sample 3 — target: His6 tag; technique: AlphaScreen counter screen; concentration: concentration not given
SMILES | inhibition [%]
COC[C@H]1OC(=O)c2coc3c2[C@@]1(C)C1=C(C3=O)[C@@H]2CCC(=O)[C@@]2(C)C[C@H]1OC(C)=O | 5
Nc1ncnc2c1ncn2[C@@H]1O[C@H](COP(=O)(O)CP(=O)(O)O)[C@@H](O)[C@H]1O | 4.5
COC(=O)c1ccc(NC=C2C(=O)NC(=O)N(C)C2=O)cc1 | 3.45
COc1cccc(N2C(=O)NC(=O)C(=CNc3ccc(F)cc3)C2=O)c1 | -3.45

Sample 4 — cell line: Huh-7; concentration: 10 µM; time: 24 h
Compound | viability
CC(=O)Nc1cc([As](=O)(O)O)ccc1O | 103%
OC1CCCCC1N1CCC(c2ccccc2)CC1 (centres unmarked) | 101%
C[C@@H]1[C@H](O)[C@@H](C)/C=C/C=C/CC/C=C/C=C/C=C/C=C/[C@H](O[C@@H]2O[C@H](C)[C@@H](O)[C@H](N)[C@@H]2O)C[C@@H]2O[C@](O)(C[C@@H](O)[C@H](O)CC[C@@H](O)C[C@@H](O)C[C@@H](O)CC(=O)O[C@H]1C)C[C@H](O)[C@H]2C(=O)O | 98.1%

Sample 5 — effect on: cell-free assay; concentration: 10 µM
Compound: CC(=O)Nc1c(C(C)=O)c(=O)n(C)c2nc(-c3ccc(Cl)cc3Cl)c(-c3ccc(Cl)cc3)cc12
target | inhibition [%]
CHRM3 (Homo sapiens, UniProt P20309) | -6.59
OPRK1 (Homo sapiens, UniProt P41145) | 7.95
OPRD1 (Homo sapiens, UniProt P41143) | -2.35
OPRM1 (Homo sapiens, UniProt P35372) | 8.16
HTR2A (Homo sapiens, UniProt P28223) | 21.8
DRD5 (Homo sapiens, UniProt P21918) | 5.24
HTR2C (Homo sapiens, UniProt P28335) | 17.5
CHRM1 (Homo sapiens, UniProt P11229) | -3.7
Nociceptin receptor (OPRL1, Homo sapiens, UniProt P41146) | -68.2

A few entries again (sample 5):
target | inhibition [%]
DRD5 (Homo sapiens, UniProt P21918) | 5.24
HTR2C (Homo sapiens, UniProt P28335) | 17.5
CHRM1 (Homo sapiens, UniProt P11229) | -3.7
